Assay results of several laboratories.
Numbered parts are unrelated; each lists some results of a single study. Positions count from the first letter of the parent shown.

Block 1 — method: DNA-protein interaction ELISA; molecule type: double-stranded DNA, one strand shown; sample: in vitro, bacterial lysate; tested at: not given; notes: whole dsDNA probe, crude lysate protein; relative to: highest signal in screen; direction: higher = stronger binding
Target: Probable WRKY transcription factor 33, C-terminal DNA-binding domain (WRKY33, Arabidopsis thaliana, UniProt Q8S8P5, residues 346-449)
Residues (chain): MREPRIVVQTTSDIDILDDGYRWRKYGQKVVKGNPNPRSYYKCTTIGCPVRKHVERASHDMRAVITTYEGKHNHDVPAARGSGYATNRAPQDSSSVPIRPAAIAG
| Sequence | relative absorbance |
| --- | --- |
| AAAAAATTCACTTTTACCTTTGTGTTAAAA | 61.8 % of maximum |
| AAAAAATATGTAGCTGCCGTTACGCTAAAA | 98 % of maximum |
| AAAAAATCATCTCTATGTTATTGTTGAAAA | 29.4 % of maximum |
| AAAAAAGTGTGTGGCTCAGGATTCCCAAAA | 34.8 % of maximum |
| AAAAAAATCCATATTATTGCTACCCGAAAA | 27 % of maximum |
| AAAAAACACTTAACTGAGTGGGATTGAAAA | 36.5 % of maximum |
| AAAAAAGACACTCTAATTCCGTAGGCAAAA | 29.8 % of maximum |
| AAAAAAAAATTTCGAGCCTCGGCGTAAAAA | 35.6 % of maximum |
| AAAAAAACCTCTTTATTCTCGATTGTAAAA | 29.9 % of maximum |
| AAAAAATTGCACCTGATACTAGGGTTAAAA | 44.6 % of maximum |
| AAAAAATGTCCATCTTGCGTCTGTATAAAA | 38.3 % of maximum |
| AAAAAATTGGTTCTCATTTCTACTTCAAAA | 41.1 % of maximum |
| AAAAAAGACCGCAGCAAGAATTAAATAAAA | 79 % of maximum |
| AAAAAATTCTTAGTTAGATTCACCTCAAAA | 39.8 % of maximum |
| AAAAAAAAGCTTCGGAGTCTTGAGAAAAAA | 71.7 % of maximum |
| AAAAAAATTACGCGGGATCGCCAAAA | 42.3 % of maximum |
| AAAAAATTGCATTCCACCCTTAGGTTAAAA | 60.8 % of maximum |

Block 2 — target: FOS, bZIP domain (human); method: DHFR protein complementation; sample: yeast; relative to: wild-type JUN-FOS pair; direction: higher = stronger binding
Notes: single substitutions, most at no-binding floor
Starting sequence: JUN, bZIP domain (human); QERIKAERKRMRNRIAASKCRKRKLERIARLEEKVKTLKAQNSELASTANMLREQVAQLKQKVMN; partner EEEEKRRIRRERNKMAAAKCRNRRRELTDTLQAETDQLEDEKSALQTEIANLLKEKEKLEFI
| Substitution | binding fitness [natural log] |
| --- | --- |
| L31H | -0.311 |
| A29H | -0.112 |
| A46F | -0.305 |
| I28G | -0.24 |
| R53Q | -0.569 |
| T48H | -0.038 |
| A29L | -0.307 |
| Q41H | -0.171 |
| T37H | 0.0413 |
| L31D | -0.612 |
| L31C | -0.645 |
| S43T | 0.0251 |
| E54W | -0.453 |
| T37F | -0.179 |
| R53P | -1.29 |
| M51W | -0.158 |
| S47I | 0.00126 |

Block 3 — method: protein binding microarray; molecule type: double-stranded DNA, one strand shown; sample: in vitro; tested at: not given; relative to: not given; direction: higher = stronger binding
Target: Histone acetyltransferase KAT6A, winged helix 2, GST fusion (KAT6A, Homo sapiens, UniProt Q92794, residues 85-181)
Notes: 8-mer, flanks averaged, mean of 2 arrays, mostly near background
Residues (chain): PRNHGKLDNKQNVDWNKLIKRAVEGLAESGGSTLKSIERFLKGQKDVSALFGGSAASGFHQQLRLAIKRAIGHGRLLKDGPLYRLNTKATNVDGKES
| Sequence | E-score |
| --- | --- |
| GCCAGCCC | 0.0871 |
| CGTGTGTA | -0.104 |
| ACTCATGC | -0.205 |
| AAATTTAG | 0.0355 |
| TCCCTGAA | 0.0685 |
| CGCCCGCC | 0.225 |
| TAATGCTA | 0.0943 |
| ATTGGACC | -0.0504 |
| CACTGACC | 0.129 |
| CACACACC | -0.0347 |
| GGGCAATA | 0.069 |
| GCATCAAC | 0.118 |
| AGGGACTA | -0.0926 |
| CTATACCA | -0.0921 |
| AAGATTCA | 0.011 |
| AGGTGAAG | -0.013 |

Block 4 — method: aptamer microarray, sandwich; molecule type: DNA with 2'F-ANA; sample: in vitro; tested at: 200 nM; added: Cy3 exosite-II aptamer, 400 nM; direction: higher = stronger binding; sequence: GGTTGGTGTGGTTGG
Target: Prothrombin, mature alpha-thrombin (F2, Homo sapiens, UniProt P00734)
Notes: whole 15-mer aptamer, many near background
| Modification | mean fluorescence intensity |
| --- | --- |
| 2'F-ANA at 4 5 6 7 9 12 13 14 15 | 51 a.u. |
| 2'F-ANA at 2 3 4 5 7 9 11 12 13 14 15 | 52.3 a.u. |
| 2'F-ANA at 2 4 5 6 7 9 10 13 14 | 45 a.u. |
| 2'F-ANA at 1 3 4 5 6 8 9 10 13 14 15 | 52.4 a.u. |
| 2'F-ANA at 1 3 4 9 13 14 | 60.1 a.u. |
| 2'F-ANA at 1 2 3 6 7 8 10 11 13 | 63.6 a.u. |
| 2'F-ANA at 2 3 8 9 13 14 15 | 386 a.u. |
| 2'F-ANA at 1 2 3 5 7 12 14 | 49.4 a.u. |
| 2'F-ANA at 2 4 6 7 10 11 12 14 | 58.8 a.u. |
| 2'F-ANA at 1 2 3 4 6 8 9 10 11 12 | 70.1 a.u. |
| 2'F-ANA at 3 4 7 12 15 | 1030 a.u. |
| 2'F-ANA at 2 4 7 9 10 15 | 93.7 a.u. |
| 2'F-ANA at 4 6 8 9 10 12 13 14 15 | 52.8 a.u. |
| 2'F-ANA at 1 3 7 | 374 a.u. |
| 2'F-ANA at 2 6 11 12 15 | 468 a.u. |
| 2'F-ANA at 3 4 9 10 12 15 | 357 a.u. |
| 2'F-ANA at 10 12 14 | 120 a.u. |
| 2'F-ANA at 2 5 7 8 12 14 | 48.2 a.u. |
| 2'F-ANA at 2 3 11 13 15 | 640 a.u. |
| 2'F-ANA at 3 4 7 8 9 10 11 13 14 15 | 190 a.u. |
| 2'F-ANA at 1 5 6 10 12 13 14 15 | 46.5 a.u. |
| 2'F-ANA at 1 5 7 8 9 10 11 12 15 | 94.3 a.u. |
| 2'F-ANA at 1 2 5 8 9 10 11 12 13 14 | 48.7 a.u. |

Block 5 — target: CCNB1, cyclin fold, Cln2 fusion (human); method: yeast growth competition, sequencing; sample: yeast; notes: weak parent motif; relative to: not given; direction: higher = stronger binding
Starting sequence: CDKN1A docking peptide (human); SKACRRLFGPVDS
| Substitution | normalised enrichment score |
| --- | --- |
| A3M | 0.339 |
| R6W | -0.0763 |
| R5G | 0.0384 |
| V11E | 0.527 |
| R5A | 0.274 |
| K2F | 0.373 |
| C4D | 0.113 |
| R6Y | 0.167 |
| K2S | 0.24 |
| P10A | 0.458 |
| R5K | 0.247 |
| D12F | 0.252 |
| K2W | 0.0291 |
| P10E | 0.117 |
| R5S | -0.165 |
| C4P | 0.219 |
| P10M | -0.426 |

Block 6 — method: universal PBM; molecule type: double-stranded DNA, one strand shown; sample: in vitro; tested at: 600 nM; direction: higher = stronger binding
Target: Sal-like protein 4, full length isoform A (SALL4, Homo sapiens, UniProt Q9UJQ4, residues 1-1053)
Sequence of UniProt Q9UJQ4 (whole entry, looked up): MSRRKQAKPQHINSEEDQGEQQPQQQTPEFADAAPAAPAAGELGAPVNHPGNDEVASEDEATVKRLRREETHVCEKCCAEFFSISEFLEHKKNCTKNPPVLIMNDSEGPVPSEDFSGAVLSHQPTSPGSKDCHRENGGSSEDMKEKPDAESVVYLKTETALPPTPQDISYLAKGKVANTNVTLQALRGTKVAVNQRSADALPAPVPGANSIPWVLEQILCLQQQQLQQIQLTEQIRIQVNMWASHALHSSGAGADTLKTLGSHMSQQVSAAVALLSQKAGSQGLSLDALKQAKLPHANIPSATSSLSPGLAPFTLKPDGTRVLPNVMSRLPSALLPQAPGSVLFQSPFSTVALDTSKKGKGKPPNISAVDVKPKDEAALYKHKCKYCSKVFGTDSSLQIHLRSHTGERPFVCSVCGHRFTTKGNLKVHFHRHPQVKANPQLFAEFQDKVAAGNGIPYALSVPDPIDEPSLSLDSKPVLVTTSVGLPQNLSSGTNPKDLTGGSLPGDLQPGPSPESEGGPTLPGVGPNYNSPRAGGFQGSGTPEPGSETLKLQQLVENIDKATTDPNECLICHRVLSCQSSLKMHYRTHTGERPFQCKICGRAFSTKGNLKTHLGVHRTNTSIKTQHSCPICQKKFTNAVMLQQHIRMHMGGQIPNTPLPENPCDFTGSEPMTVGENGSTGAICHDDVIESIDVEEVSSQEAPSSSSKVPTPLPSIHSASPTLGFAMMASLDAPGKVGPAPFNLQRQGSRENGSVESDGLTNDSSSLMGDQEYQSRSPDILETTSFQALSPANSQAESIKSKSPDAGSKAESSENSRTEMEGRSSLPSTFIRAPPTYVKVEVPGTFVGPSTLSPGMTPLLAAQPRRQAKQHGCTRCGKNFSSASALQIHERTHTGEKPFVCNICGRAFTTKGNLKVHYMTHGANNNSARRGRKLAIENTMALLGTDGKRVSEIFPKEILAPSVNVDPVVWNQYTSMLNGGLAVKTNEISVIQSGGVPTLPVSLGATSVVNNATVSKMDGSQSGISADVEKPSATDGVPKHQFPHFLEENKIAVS
Notes: 8-mer, flanks averaged, mean of replicates
| Sequence | E-score |
| --- | --- |
| CAACATAA | 0.3 |
| AGAGGCCC | -0.363 |
| ATTCTCAA | 0.249 |
| ACTATCAA | 0.102 |
| AGACTATA | 0.21 |
| GAACTGCA | 0.00496 |
| CATTGCCC | -0.158 |
| AAAAGATA | 0.296 |
| GATTACAC | 0.0712 |
| CCGCCTCG | -0.272 |
| AACATTAG | 0.176 |
| CAACAGCG | -0.25 |
| AATAAGGA | 0.184 |
| CTACTGTC | 0.014 |
| CTCACCGC | -0.273 |
| TCACCCGA | -0.163 |
| AACTGAAT | 0.098 |
| AGTACGCC | -0.179 |
| ACTTGTCC | 0.00777 |
| AACTCGAA | -0.014 |
| GCCAAGGC | -0.365 |
| CATGTCCA | 0.0657 |
| AGTGTTCG | -0.0216 |
| AGCATATC | 0.159 |

Block 7 — method: DHFR PCA, deep sequencing; sample: yeast; added: (+)-ABA 710 µM; relative to: wild-type fitted maximum; direction: higher = stronger binding
Target: ABI1, truncated, D143A, DHFR fusion (Arabidopsis thaliana)
Notes: methotrexate growth selection, single substitutions
Starting sequence: PYL1, truncated, DHFR fusion (Arabidopsis thaliana); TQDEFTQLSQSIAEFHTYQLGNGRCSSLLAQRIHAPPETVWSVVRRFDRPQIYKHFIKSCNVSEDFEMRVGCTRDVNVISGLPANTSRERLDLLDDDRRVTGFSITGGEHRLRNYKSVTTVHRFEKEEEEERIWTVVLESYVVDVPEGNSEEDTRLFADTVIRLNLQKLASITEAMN; partner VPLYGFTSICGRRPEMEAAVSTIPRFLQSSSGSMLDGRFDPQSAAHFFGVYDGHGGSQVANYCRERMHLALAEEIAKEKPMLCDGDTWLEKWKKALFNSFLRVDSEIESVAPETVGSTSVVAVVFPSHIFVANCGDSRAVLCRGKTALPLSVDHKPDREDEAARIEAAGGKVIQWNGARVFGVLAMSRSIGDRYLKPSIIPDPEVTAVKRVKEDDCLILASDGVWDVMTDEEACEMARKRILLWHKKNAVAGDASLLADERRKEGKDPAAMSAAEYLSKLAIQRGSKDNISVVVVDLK
| Substitution | relative binding score [%] |
| --- | --- |
| S63W | 82.1 |
| Q51G | 92 |
| R90K | 105 |
| L8H | 74.9 |
| T160P | -13.8 |
| E147H | 101 |
| N149P | 17.5 |
| H34M | 93.7 |
| G107E | 90.7 |
| V118H | 103 |
| P83K | 8.56 |
| S26V | 89.8 |
| R155E | 78.7 |
| R123V | 99 |
| L20G | 102 |
| V161E | -12.7 |
| F15Q | 80.3 |
| R32G | 81 |
| T120I | 2.92 |

Further values, each from its own experiment
| Substance | target | assay | test system | conditions | scale | endpoint | value |
| --- | --- | --- | --- | --- | --- | --- | --- |
| PhoQ, residues 284 288 289 292 302 303 TVTVVA | PhoP, residues 12 14 15 18 19 STWGI (Escherichia coli, UniProt P23836) | Sort-seq, refers to: YFP reporter | E. coli | PhoQ-PhoP variant library, added: 10 µM Mg2+ | relative to: high Mg2+ state, higher = stronger signaling | fold induction | 6.4 |

For quick reference, copied from above (block 5):
| Substitution | normalised enrichment score |
| --- | --- |
| A3M | 0.339 |
| R6W | -0.0763 |
| R5G | 0.0384 |
| V11E | 0.527 |
| R5A | 0.274 |
| K2F | 0.373 |
| C4D | 0.113 |
| R6Y | 0.167 |
| K2S | 0.24 |
| P10A | 0.458 |
| R5K | 0.247 |
| D12F | 0.252 |
| K2W | 0.0291 |
| P10E | 0.117 |
| R5S | -0.165 |
| C4P | 0.219 |
| P10M | -0.426 |
